Earlier results as cited in several papers.
Numbered parts are unrelated; values within a part may stem from several laboratories. ± marks the error that the study gave.

Block 1
Organism: SARS-CoV-2
Read-out: viral cytopathic effect
Cell line: Vero E6
Tested at: 20 µM
| SMILES | inhibition [%] |
| --- | --- |
| CC(C)c1ccccc1Cc1cc(C(=O)Nc2ccc(S(=O)(=O)c3ccccc3C(C)(C)C)cc2)c(O)c(O)c1O | 10.3 |
| O=C(O)c1ccccc1Nc1ccc(CCc2ccc(Cl)c(Cl)c2)cc1 | 0.27 |
| O=C(O)c1c(Cl)c(Cl)c(Cl)c(Cl)c1-c1c2cc(I)c(=O)c(I)c-2oc2c(I)c(O)c(I)cc12 | 3.39 |
| O=c1c(O)c(-c2ccc(O)cc2O)oc2cc(O)cc(O)c12 | -0.19 |
| O=C(O[C@@H]1Cc2c(O)cc(O)cc2O[C@@H]1c1cc(O)c(O)c(O)c1)c1cc(O)c(O)c(O)c1 | 0.29 |
| Cc1cc(N)c2ccccc2[n+]1CCCCCCCCCC[n+]1c(C)cc(N)c2ccccc21 | -0.08 |
| CC1=NN(c2ccc(C)c(C)c2)C(=O)/C1=N\Nc1cccc(-c2cccc(C(=O)O)c2)c1O | 6.62 |
| CO[C@H](C(=O)[C@@H](O)[C@@H](C)O)[C@@H]1Cc2cc3cc(O[C@H]4C[C@@H](O[C@H]5C[C@@H](O)[C@H](O)[C@@H](C)O5)[C@H](O)[C@@H](C)O4)c(C)c(O)c3c(O)c2C(=O)[C@H]1O[C@H]1C[C@@H](O[C@H]2C[C@@H](O[C@H]3C[C@](C)(O)[C@H](O)[C@@H](C)O3)[C@@H](O)[C@@H](C)O2)[C@H](O)[C@@H](C)O1 | 1.22 |

Mixed results
| SMILES | organism | assay | system | quantity | result |
| --- | --- | --- | --- | --- | --- |
| CCCCCCCCCCCCCCCCCC[S+](CCC)c1ccccc1C(=O)OCC (centres unmarked) | SARS-CoV-2 | cytopathic effect | Caco-2 | IC50 | 770 ± 110 nM |
| CN(C)CCCN1c2ccccc2Sc2ccc(C(F)(F)F)cc21 | SARS-CoV | cytopathic effect | Vero E6 | EC50 | 6400 nM |
| O=C(NCc1c(F)cc(F)cc1F)c1cn2c(c(O)c1=O)C(=O)N1[C@H]3CC[C@H](C3)O[C@@H]1C2 | HIV-1 | viral replication, single-round vector infection | IN G118R | EC50 | 9.1 ± 1.6 nM |
| CN(C)CCCN1c2ccccc2Sc2ccccc21 | Ebola virus | viral replication | Vero E6, eGFP reporter | EC50 | 21000 nM |
| CC[C@H]1OC(=O)[C@H](C)[C@@H](O[C@H]2C[C@@](C)(OC)[C@@H](O)[C@H](C)O2)[C@H](C)[C@@H](O[C@@H]2O[C@H](C)C[C@H](N(C)C)[C@H]2O)[C@](C)(O)C[C@@H](C)CN(C)[C@H](C)[C@@H](O)[C@]1(C)O | SARS-CoV-2 | cytopathic effect | USA_WA1/2020 | IC50 | 48000 nM |
| N[C@@H](CC(=O)N1CCn2c(nnc2C(F)(F)F)C1)Cc1cc(F)c(F)cc1F | SARS-CoV-2 | viral replication | Huh7.5 | IC50 | 320 nM |
| CCN(CC)CCCC(C)Nc1ccnc2cc(Cl)ccc12 (centres unmarked) | SARS-CoV-2 | cytopathic effect | USA_WA1/2020 | IC50 | 6500 nM |
| C[C@@H]1CCO[C@H]2Cn3cc(C(=O)NCc4ccc(F)cc4F)c(=O)c(O)c3C(=O)N12 | HIV-1 | viral replication, single-round vector infection | IN G140S/Q148H | EC50 | 6.4 ± 1.6 nM |
| Nc1nc2nc[nH]c2c(=S)[nH]1 | SARS-CoV-2 | viral replication | Calu-3 | IC50 | 550 nM |

Repeated from above (mixed results):
| SMILES | organism | assay | system | quantity | result |
| --- | --- | --- | --- | --- | --- |
| Nc1nc2nc[nH]c2c(=S)[nH]1 | SARS-CoV-2 | viral replication | Calu-3 | IC50 | 550 nM |
| CN(C)CCCN1c2ccccc2Sc2ccc(C(F)(F)F)cc21 | SARS-CoV | cytopathic effect | Vero E6 | EC50 | 6400 nM |
